Measurements from different studies.
Each numbered part is a random draw from the data of one study; scales do not carry over between parts. Changes are numbered by the printed parent chain.

Set 1
Target: Sal-like protein 4, full length isoform B (SALL4, Homo sapiens, UniProt Q9UJQ4-2, residues 1-616)
Technique: universal PBM
Molecule type: double-stranded DNA, one strand shown
Medium: in vitro
Concentration: not given
Notes: 8-mer, flanks averaged, mean of replicates
Direction: higher = stronger binding
| Oligonucleotide | E-score |
| --- | --- |
| CTTTTCCC | 0.0573 |
| GAAGTCAC | -0.035 |
| ATACAAAA | 0.36 |
| ATGCTCAG | -0.0427 |
| AGGACTAA | 0.118 |
| ATTATCTG | 0.221 |
| AAACCTTC | -0.0939 |
| TGGGCCCA | -0.308 |
| ACTGCTAG | -0.0883 |
| ATCGGTCA | -0.062 |
| CAAAAAAC | 0.201 |
| TCAAGCGA | 0.00991 |
| GCTGCTAC | -0.236 |
| CATCATGC | 0.0745 |
| AGATCTAG | -0.0352 |

Set 2
Target: CCNA1, cyclin fold, Cln2 fusion (human)
Technique: yeast growth competition, sequencing
Medium: yeast
Notes: weak parent motif
Reference: not given
Direction: higher = stronger binding
Parent: DOT1L docking peptide (human); SEAKRRIVFTITT
| Substitution | normalised enrichment score |
| --- | --- |
| S1A | 0.455 |
| V8A | 0.21 |
| T12A | 0.126 |
| K4A | -0.0913 |
| T13A | 0.112 |
| E2A | 0.476 |

Set 3
Target: RNA binding protein fox-1 homolog 2, RRM domain, GST-SBP tag (RBFOX2, Homo sapiens, UniProt O43251-10, residues 100-194)
Technique: RNA Bind-n-Seq
Molecule type: RNA
Medium: in vitro
Concentration: 365 nM
Notes: natural RNA segment, single round, ends assumed
Reference: no-protein control
Direction: higher = stronger binding
Constant ends, left off below: GGGAGUUCUACAGUCCGACGAUC … UGGAAUUCUCGGGUGCCAA
Residues (chain): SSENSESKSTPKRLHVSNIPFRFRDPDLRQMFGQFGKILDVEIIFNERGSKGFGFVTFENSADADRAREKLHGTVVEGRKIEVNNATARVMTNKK
| Oligonucleotide | RBNS enrichment (R) |
| --- | --- |
| GAAGGCUUGAUAAAUUUUUAACAAAGUUUGUACAUUUUUUAUGAAAGUUACUAGUAAUGCUUUACUAAGUAGUGCAAUGAAUUUUUAUUUUUAAUCCCUGUGCCCAAUUU | 0.773 |
| CCCUUCCAUCCCCAUGGGCUUGACUCUCAACCUGUUACUGUAAACUGCGAUCCUUCCCACCGUCAGCCUUUGUUUCUCAUCCUCACCUCCAAAGAUGGGAUUAUUAAUCC | 1.1 |
| CAGCUGCAGACCUAAGCCCUCCCCCACCCCUGGAAAGGUCCCUCCCCAACCCAGGCCCCUGGCGUGUGUGGGUGUGCGUGCGUGUGCGUGCCGUGUUCGUGUGCAAGGGG | 0.492 |
| AAUUAUGGUACUUAUUUAUGUAGUCACUGUAUUUCUGGAUUUUUAAAUUAAUAAAAAAGUUAAUUUUAAAAAUCAUCUGUAGUCUUGUUGCAUAAGUAAUUGACUCUCUG | 0.76 |
| UUAUCCUUCUCCUUUGAAAGAUUUUCAAUAUUUUAGUAUAAUAAAGAGCUGUAUGUUGAGCCAUCUGUGUCGGGAUUUGUGUUCUCCUGUUCUUUUUCAGUUCCUCUCUA | 0.736 |
| ACUACUUUACCCUACCUUCUCCCCUUUUAGAUGGGUUCUUCCUGAGUUUUGGAGUCUUGUAUGAUUAUCAGUAUUCCCCUGUCAAAAUCAAAUCUAUUCAGGUUUCUUCA | 0.652 |
| AUCCGCCUCCUCUGCAGCAGCCAGUGUGCUGCUCGAGGGUGUUGGGGGGUCCACCCGCCUCCAUCUGGAUACUACAACCUCCCUCCUUCCUAAGUUUUGAGGUGGGGUGA | 0.251 |
| UUCUGGCUUUCCUCUGCAGCCAGGGAAGUGGACAGGAAACUGGACCUUAGGGACACCCUGCAGAGUAUGUUCAGUGUCUCGUCUUGGUGUUUCACAGUUCCAUGGUGAUA | 0.474 |
| AACACAUUUGCAAGGUGAUUGACACCAUCUUUGCCUAAAUGCAGUGAGUGUACAGGAAGCUCGUUCUCGAGACAGUACAUACAAAUCCGGAGGGGGUCACAUAGACUAGG | 0.232 |
| GGGGGAUUCUGAGCAGUGCCUCUUGUCUGAGGGACAUAUCAGUGACCUCGACGUUGCCUUUAGACUACAGUUGUGUUAGCCUCUUGCGUAUUGGCUUUUUCAGAGUCAUU | 0.358 |
| UAGGGUACAUGUGCACAUUGUGCAGGUUAGUUACAUAUAUAUACAUGUGCCAUGCUGGUGCGCUGCACCCACUAACUCGUCAUCUAGCAUUAGGUAUAUCUCCCAAUGCU | 0.824 |
| GCAGGCACUGUGGCCGCUGAGCUGCGUGUUCCCAGCUGCCUCUGUUGCGGACAGCCCGCUCCACUCUCCACCCUGUACUCCAUAAAUAAAGCUACGUGCUUCUGCCCUGA | 0.313 |

Further values, each from its own experiment
| Molecule | target | test | test system | setting | scale | measurement | value |
| --- | --- | --- | --- | --- | --- | --- | --- |
| PhoQ, residues 284 288 289 292 302 303 TTCLQL | PhoP, residues 12 14 15 18 19 LQHIR (Escherichia coli, UniProt P23836) | Sort-seq, refers to: YFP reporter | E. coli | PhoQ-PhoP variant library, together with: 10 µM Mg2+ | reference: high Mg2+ state, higher = stronger signaling | fold induction | 2.56 |
